Measurements of several laboratories.
Compare with care: the assays were run in different laboratories. “And” joins repeats or separate records; there may be more than shown.
Effect on: tubulin polymerisation
Mode: inhibitor

SMILES | method | time | IC50
Cn1ccc2cc(-n3nnnc3-c3cc(Cl)nc(Cl)c3)ccc21 | absorbance |  | 2800 nM
CCn1c2ccccc2c2cc(C(O)c3cccc4ncccc34)ccc21 (stereo not shown) | absorbance |  | 1100 nM
Cc1ccc(C)c(C(=O)/C=C/C(=O)Nc2ccccc2)c1 | absorbance |  | < 5000 nM
COc1cc(OC)c(/C=N/NC(=O)c2ccc(-c3cc(OC)c(OC)c(OC)c3)nc2C)c(OC)c1 |  |  | 50.1 nM
COc1ccc2c(NC(C)=O)c(C(=O)c3cc(OC)c(OC)c(OC)c3)oc2c1 |  |  | 1600 nM
COc1ccc(OC)c(NC(=O)c2cc(-c3c[nH]c4ccccc34)n[nH]2)c1 | absorbance | 20 min | 19000 nM and < 20000 nM
N#Cc1c(-c2ccc(Cl)c(Cl)c2)c(-c2ccc(Cl)c(Cl)c2)nn(CCO)c1=O |  | 20 min | 5800 nM
COC(=O)c1cc(CCc2ccc(OC)cc2C)sc1N | absorbance | 20 min | > 20000 nM
COc1ccccc1/C=N/NC(=O)c1ccc(-c2cc(OC)c(OC)c(OC)c2)nc1C |  |  | 22.4 nM
N#Cc1c(-c2ccccc2)c(-c2ccccc2)nn(CC(=O)O)c1=O |  | 20 min | 6200 nM
COc1ccc2c(NC(=O)CI)c(C(=O)c3cc(OC)c(OC)c(OC)c3)oc2c1 |  |  | 1800 nM
COc1cc(-c2ccc(C(=O)N/N=C/c3ccc([N+](=O)[O-])cc3)c(C)n2)cc(OC)c1OC |  |  | 10.8 nM
COc1cc(NC(=O)/C=C/c2c[nH]c3ccccc23)cc(OC)c1OC | absorbance |  | < 20000 nM
COC(=O)c1cc(CCc2cc(OC)ccc2OC)sc1N | absorbance | 20 min | 1900 nM
O=C(/C=C/C(=O)c1ccccc1)Nc1ccccc1 | absorbance |  | < 5000 nM
N#Cc1c(-c2ccc(F)cc2)c(-c2ccc(F)cc2)nn(Cc2nn[nH]n2)c1=O |  | 20 min | 2500 nM
COc1ccc2c(C(=O)c3cccc(OC(F)(F)F)c3)c(-c3ccc(OC)c(O)c3)[nH]c2c1 | absorbance |  | < 5000 nM
COc1ccc(/C=N/NC(=O)c2ccc(-c3cc(OC)c(OC)c(OC)c3)nc2C)cc1OC |  |  | 17.6 nM
COC(=O)c1cc(CCc2ccccc2OC)sc1N | absorbance | 20 min | > 20000 nM
